Measured values of several laboratories.
Lines come from different studies, so protocols differ. Numbers after ± are the reported error. Square brackets hold non-standard residues; d marks the D form. Ends that are not written are not given here.
KDM5A: KDM5A 287-347 (Homo sapiens, UniProt P29375)
B1: AHSP (UniProt Q9NZD4); chain GSMALLKANKDLISAGLKEFSVLLNQQVFNDPLVSEEDMVTVVEDWMNFYINYYRQQVTGEPQERDKALQELRQELNTLANPFLAKYRDFLKSHELPSHPPPSS
B2: sevA 1-111 (Dictyostelium discoideum, UniProt P10733); chain MIKNRKLDITSTNVAGIGTDLDKKCRLDAASTEAQWKGVGQAPGLKIWRIENFKVVPVPESSYGKFYDGDSYIILHTFKEGNSLKHDIHFFLGTFTTQDEAGTAAYKTVEL
B3: ADAR (Homo sapiens, UniProt P55265); sequence looked up; chain MNPRQGYSLSGYYTHPFQGYEHRQLRYQQPGPGSSPSSFLLKQIEFLKGQLPEAPVIGKQTPSLPPSLPGLRPRFPVLLASSTRGRQVDIRGVPRGVHLRSQGLQRGFQHPSPRGRSLPQRGVDCLSSHFQELSIYQDQEQRILKFLEELGEGKATTAHDLSGKLGTPKKEINRVLYSLAKKGKLQKEAGTPPLWKIAVSTQAWNQHSGVVRPDGHSQGAPNSDPSLEPEDRNSTSVSEDLLEPFIAVSAQAWNQHSGVVRPDSHSQGSPNSDPGLEPEDSNSTSALEDPLEFLDMAEIKEKICDYLFNVSDSSALNLAKNIGLTKARDINAVLIDMERQGDVYRQGTTPPIWHLTDKKRERMQIKRNTNSVPETAPAAIPETKRNAEFLTCNIPTSNASNNMVTTEKVENGQEPVIKLENRQEARPEPARLKPPVHYNGPSKAGYVDFENGQWATDDIPDDLNSIRAAPGEFRAIMEMPSFYSHGLPRCSPYKKLTECQLKNPISGLLEYAQFASQTCEFNMIEQSGPPHEPRFKFQVVINGREFPPAEAGSKKVAKQDAAMKAMTILLEEAKAKDSGKSEESSHYSTEKESEKTAESQTPTPSATSFFSGKSPVTTLLECMHKLGNSCEFRLLSKEGPAHEPKFQYCVAVGAQTFPSVSAPSKKVAKQMAAEEAMKALHGEATNSMASDNQPEGMISESLDNLESMMPNKVRKIGELVRYLNTNPVGGLLEYARSHGFAAEFKLVDQSGPPHEPKFVYQAKVGGRWFPAVCAHSKKQGKQEAADAALRVLIGENEKAERMGFTEVTPVTGASLRRTMLLLSRSPEAQPKTLPLTGSTFHDQIAMLSHRCFNTLTNSFQPSLLGRKILAAIIMKKDSEDMGVVVSLGTGNRCVKGDSLSLKGETVNDCHAEIISRRGFIRFLYSELMKYNSQTAKDSIFEPAKGGEKLQIKKTVSFHLYISTAPCGDGALFDKSCSDRAMESTESRHYPVFENPKQGKLRTKVENGEGTIPVESSDIVPTWDGIRLGERLRTMSCSDKILRWNVLGLQGALLTHFLQPIYLKSVTLGYLFSQGHLTRAICCRVTRDGSAFEDGLRHPFIVNHPKVGRVSIYDSKRQSGKTKETSVNWCLADGYDLEILDGTRGTVDGPRNELSRVSKKNIFLLFKKLCSFRYRRDLLRLSYGEAKKAARDYETAKNYFKKGLKDMGYGNWISKPQEEKNFYLCPV
B4: ADA D8N (Homo sapiens, UniProt P00813); chain MAQTPAFNKPKVELHVHLDGSIKPETILYYGRRRGIALPANTAEGLLNVIGMDKPLTLPDFLAKFDYYMPAIAGCREAIKRIAYEFVEMKAKEGVVYVEVRYSPHLLANSKVEPIPWNQAEGDLTPDEVVALVGQGLQEGERDFGVKARSILCCMRHQPNWSPKVVELCKKYQQQTVVAIDLAGDETIPGSSLLPGHVQAYQEAVKSGIHRTVHAGEVGSAEVVKEAVDILKTERLGHGYHTLEDQALYNRLRQENMHFEICPWSSYLTGAWKPDTEHAVIRLKNDQANYSLNTDDPLIFKSTLDTDYQMTKRDMGFTEEEFKRLNINAAKSSFLPEDEKRELLDLLYKAYGMPPSASAGQNL
B5: XCL1 mature protein V21C/V59C/E4A (UniProt P47992); chain VGSAVSDKRTCVSLTTQRLPCSRIKTYTITEGSLRAVIFITKRGLKVCADPQATWVRDCVRSMDRKSNTRNNMIQTKPTGTQQSTNTAVTLTG
B6: CER1 18-267 (Homo sapiens, UniProt O95813); sequence looked up; chain TRHQDGRQNQSSLSPVLLPRNQRELPTGNHEEAEEKPDLFVAVPHLVATSPAGEGQRQREKMLSRFGRFWKKPEREMHPSRDSDSEPFPPGTQSLIQPIDGMKMEKSPLREEAKKFWHHFMFRKTPASQGVILPIKSHEVHWETCRTVPFSQTITHEGCEKVVVQNNLCFGKCGSVHFPGAAQHSHTSCSHCLPAKFTTMHLPLNCTELSSVIKVVMLVEECQCKVKTEHEDGHILHAGSQDSFIPGVSA
B7: Ric8b 1-483 E400A (Mus musculus, UniProt Q80XE1); chain MDEERALYIVRAGEAGAIERVLRDYSDKHRATFKFESADEDKRKKLCEGIFKVLVKEVPTTCQVSCLEVLRILSRDKKILVPVTTKENMQILLRLAKLHESDDSLEKVSEFPVIVESLKCLCNIVFNSQMAQQLSLELNLAAKLCNLLRKCKDRKFINDIKCFDLRLLFVLSLLHTDIRSQLRYELQGLPLLTQILESAFSIKWTDEYESAIDHNGPPLSPQETDCAIEALKALFNVTVDSWKVHKESDSHQFRVMAAVLRHCLLIVGPTEDKTEELHSNAVNLLSNVPVSCLDVLICPLTHEETAQEAATLDELPSDKTTEKDTALKNSTMVYNGMNMEAIHVLLNFMEKRIDKGSSYREGLTPVLSLLTECSRAHRNIRKFLKDQVLPPLRDVTNRPAVGSTVRNKLVRLMTHVDLGVKQIAAEFLFVLCKERVDSLLKYTGYGNAAGLLAARGLLAGGRGDNWYSEDEDTDTEEYKNAKP
B8: BRCA1 452-1079 (Homo sapiens, UniProt P38398); sequence looked up; chain VESNIEDKIFGKTYRKKASLPNLSHVTENLIIGAFVTEPQIIQERPLTNKLKRKRRPTSGLHPEDFIKKADLAVQKTPEMINQGTNQTEQNGQVMNITNSGHENKTKGDSIQNEKNPNPIESLEKESAFKTKAEPISSSISNMELELNIHNSKAPKKNRLRRKSSTRHIHALELVVSRNLSPPNCTELQIDSCSSSEEIKKKKYNQMPVRHSRNLQLMEGKEPATGAKKSNKPNEQTSKRHDSDTFPELKLTNAPGSFTKCSNTSELKEFVNPSLPREEKEEKLETVKVSNNAEDPKDLMLSGERVLQTERSVESSSISLVPGTDYGTQESISLLEVSTLGKAKTEPNKCVSQCAAFENPKGLIHGCSKDNRNDTEGFKYPLGHEVNHSRETSIEMEESELDAQYLQNTFKVSKRQSFAPFSNPGNAEEECATFSAHSGSLKKQSPKVTFECEQKEENQGKNESNIKPVQTVNITAGFPVVGQKDKPVDNAKCSIKGGSRFCLSSQFRGNETGLITPNKHGLLQNPYRIPPLFPIKSFVKTKCKKNLLEENFEEHSMSPEREMGNENIPSTVSTISRNNIRENVFKEASSSNINEVGSSTNEVGSSINEIGSSDENIQAELGRNRGPK
B9: Scn2a 1080-1203 (UniProt P04775); CK2-phosphorylated; sequence looked up; chain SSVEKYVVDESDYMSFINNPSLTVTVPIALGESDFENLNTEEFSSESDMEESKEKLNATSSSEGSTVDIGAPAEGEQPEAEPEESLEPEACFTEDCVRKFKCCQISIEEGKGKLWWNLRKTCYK
B10: CYBA (Homo sapiens, UniProt P13498); chain MGQIEWAMWANEQALASGLILITGGIVATAGRFTQWYFGAYSIVAGVFVCLLEYPRGKRKKGSTMERWGQKYMTAVVKLFGPFTRNYYVRAVLHLLLSVPAGFLLATILGTACLAIASGIYLLAAVRGEQWTPIEPKPRERPQIGGTIKQPPSNPPPRPPAEARKKPSEEEAAVAAGGPPGGPQVNPIPVTDEVV
B11: RNF2 (Homo sapiens, UniProt Q99496); sequence looked up; chain MSQAVQTNGTQPLSKTWELSLYELQRTPQEAITDGLEIVVSPRSLHSELMCPICLDMLKNTMTTKECLHRFCADCIITALRSGNKECPTCRKKLVSKRSLRPDPNFDALISKIYPSRDEYEAHQERVLARINKHNNQQALSHSIEEGLKIQAMNRLQRGKKQQIENGSGAEDNGDSSHCSNASTHSNQEAGPSNKRTKTSDDSGLELDNNNAAMAIDPVMDGASEIELVFRPHPTLMEKDDSAQTRYIKTSGNATVDHLSKYLAVRLALEELRSKGESNQMNLDTASEKQYTIYIATASGQFTVLNGSFSLELVSEKYWKVNKPMELYYAPTKEHK

| Substance | partner | assay | system | conditions | scale | quantity | result |
| --- | --- | --- | --- | --- | --- | --- | --- |
| B1 (AHSP) | HBA1 apo, mature (Homo sapiens) | CD |  |  |  | denaturation midpoint temperature | 53.7 °C |
| B2 (sevA 1-111) | actin G-actin, pyrene label (Oryctolagus cuniculus, UniProt P68135) | actin polymerization, inhibitor |  | 50 nM, 14 h, capping, with: EGTA | baseline: control, higher = more F-actin | F-actin at steady state | 97.5% |
| ARTKETARKS (Histone H3.1 2-11 Q5E (Homo sapiens, UniProt P68431); sequence looked up) | KDM5A | competition with labeled peptide, fluorescence polarisation | peptide | with: H3 peptide |  | Ki | 2.53 µM |
| GSN E553K (Homo sapiens) | actin, pyrene label (Oryctolagus cuniculus, UniProt P68135) | F-actin severing, fluorimetric pyrene-actin assay |  | 20 °C, without Ca2+, with: GSN 0.25 µM |  | depolymerization rate | 3.8 h⁻¹ |
| B3 (ADAR) | DICER1 (Homo sapiens, UniProt Q9UPY3) | pre-siRNA cleavage |  | single turnover | baseline: Dicer alone, higher = more cleavage | cleavage | 4 fold |
| B4 (ADA D8N) | bovine serum albumin (Bos taurus, UniProt P02769) | adenosine deamination |  | pH 7.4 | baseline: PBS pH 7.4, higher = more activity | relative enzyme activity | 1.36 fold |
| B5 | XCR1 (Homo sapiens, UniProt P46094) | calcium flux | HEK293 |  | baseline: XCL1 CC3, higher = less potent | potency decrease | 93 fold |
| YASKGKKRNPGLKIPK (MAP2K6 residues 4-17 (Homo sapiens)) | MAPK8, pT183, pY185 (Homo sapiens, UniProt P45983) | kinase activity, inhibitor, competitive kinase inhibition assay | peptide | with: ATP 1 mM |  | IC50 | 95 µM |
| ssb fragment (Escherichia coli) | priA (Escherichia coli, UniProt P17888) | ATPase activity |  |  | baseline: his-SSB, higher = more stimulation | ATPase stimulation | 85% |
| B6 (CER1 18-267) | INHBB mature (Homo sapiens, UniProt P09529) | SMAD3 luciferase reporter, inhibitor | Fc fusion, A-204 | with: Activin B 0.8 nM |  | IC50 | 0.0341 µM |
| NOTCH2NLB (Homo sapiens, UniProt P0DPK3) | NOTCH2 (Homo sapiens, UniProt Q04721) | pGL3-UAS luciferase, luciferase reporter | U2OS | co-transfection | baseline: empty vector, higher = more activation | reporter activity | 63% |
| ARVKRTARKS (Histone H3.1 2-11 T3V/Q5R (Homo sapiens, UniProt P68431); sequence looked up) | KDM5A | competition with labeled peptide, fluorescence polarisation | peptide | with: H3 peptide |  | Ki | 2.54 µM |
| MR1/B2M empty, chimera (Homo sapiens/Bos taurus) | TAPBPL fragment del24-36 | 19F CPMG NMR |  | with TAPBPR mutant, with: 19F-DCF 500 µM |  | apparent T2 | 148 ms |
| EPB41 fragment (Homo sapiens) | SLC9A1 residues 506-575 (Rattus norvegicus) | resonant mirror detection |  | pH 5.5 |  | fold increase of Kd | > 20 times |
| cyp102A1 flavin reductase domain (Bacillus megaterium) | CYP3A4 del3-12 (Homo sapiens, UniProt P08684) | BMR-dependent reduction | nanodiscs | with: 1-PB |  | slow phase rate constant | 0.0022 s⁻¹ |
| Sptb (Chinese hamster, UniProt A0A9J7GYU9) | Ncam1 (Rattus norvegicus, UniProt P13596) | co-IP | CHO | with: methyl-β-cyclodextrin | baseline: untreated control, higher = more spectrin bound | relative coprecipitation | 74 ± 7.32% |
| H[dS]QGTFTSDYSKYLDECRAQDFVCWLMNTKRNRNNIA-NH2 (oxyntomodulin analog S16E/R17C/Q24C, D-Ser2, C-terminal amide; cysteine pairing not given here; D-Ser2, C-terminal amide) | GCGR (Homo sapiens, UniProt P47871) | CRE luciferase reporter, agonist | peptide, HEK293 |  |  | EC50 | 0.02 µM |
| FKBP1A (Homo sapiens, UniProt P62942) | RYR1 (Oryctolagus cuniculus, UniProt P11716) | planar lipid bilayer recording | planar lipid bilayers | single channel, nonphosphorylated |  | closed time | 36.7 ms |
| FGF2 (Homo sapiens, UniProt P09038) | FGFR3 isoform IIIc (unknown, UniProt Q61851) | cell proliferation, MTT | BaF3-FGFR3c | 0 to 320 nM, with: chondroitin sulfate E 4.9 µg/mL |  | half-maximal concentration | 10.1 nM |
| B7 (Ric8b 1-483 E400A) | GNAL 1-381 (Homo sapiens, UniProt P38405) | luminescence | RIC-8B knockout HEK293T |  | baseline: wild-type Ric-8B, higher = more folding | sensor folding | 32% |
| B8 (BRCA1 452-1079) | WRN (Homo sapiens, UniProt Q14191) | helicase activity, activator |  |  | higher = more unwinding | helicase activity | 5 fold |
| B9 (Scn2a 1080-1203) | ANK2 1-957 (Homo sapiens, UniProt Q01484-2) | SPR |  | pH 7.4, 25 °C, NaCl 150 mM |  | koff | 0.003 s⁻¹ |
| B10 (CYBA) | Cybb (Mus musculus, UniProt Q61093) | Western blot | BMDM |  | higher = more protein | increase in protein | 39% |
| B11 (RNF2) | CBX2 (UniProt Q14781) | FRET | Cbx2−/− ES cells | in cells, mitotic chromosomes | baseline: before photobleaching, higher = more FRET | donor fluorescence increase | 1.5 ± 0.1 fold |

For quick reference, copied from above:
| Substance | partner | assay | system | conditions | scale | quantity | result |
| --- | --- | --- | --- | --- | --- | --- | --- |
| YASKGKKRNPGLKIPK (MAP2K6 residues 4-17 (Homo sapiens)) | MAPK8, pT183, pY185 (Homo sapiens, UniProt P45983) | kinase activity, inhibitor, competitive kinase inhibition assay | peptide | with: ATP 1 mM |  | IC50 | 95 µM |
| ssb fragment (Escherichia coli) | priA (Escherichia coli, UniProt P17888) | ATPase activity |  |  | baseline: his-SSB, higher = more stimulation | ATPase stimulation | 85% |
